Published values from different studies.
Each numbered part is a random draw from the data of one study; scales do not carry over between parts. Positions count from the first letter of the parent shown.

Series 1
Target: Interferon regulatory factor 5, full length, phosphomimetic (IRF5, Homo sapiens, UniProt Q13568-2, residues 1-514, S451D/S453D/S456D/S462D)
Technique: protein-binding microarray
Form: double-stranded DNA, one strand shown
Sample: in vitro
Concentration: 940 nM top
Setting: 60-bp whole probe
Together with: salmon DNA 0.4 mg/ml
Baseline: random background probes
Reading: higher = stronger binding
All sequences stand within: GCCTAGCAC … GTCTTGATTCGCTTGACGCTGCTG
`TCATTTTCATTTTATGACACTGTGCTA` — result for “fitted relative affinity”: 1.24 z-score.
For `GACGGCATCCTTCTCCTGACGTGCTAG`, “fitted relative affinity” read 0.00779 z-score.
`GACGGACTGGGTCTCCGGACGTGCTAG` — result for “fitted relative affinity”: -0.649 z-score.
Under “fitted relative affinity”, `TTAGGTATCGGTCTCGGTTGGTGCTAG` is recorded as 10 z-score.
For `GAGGATATCAGTTTCGAGACGTGCTAG`, “fitted relative affinity” read 3.31 z-score.
Under “fitted relative affinity”, `TTAGAACTGCGACTGGATTAGTGCTAG` is recorded as -0.329 z-score.
`TTAGATAACGGGTATCGATTAGTGCTA` — result for “fitted relative affinity”: 2.9 z-score.
`GACGGACTGGGAATGGGGACGTGCTAG` — result for “fitted relative affinity”: -0.312 z-score.
For `GACGGACTGGGACTGCGGACGTGCTAG`, “fitted relative affinity” read -0.693 z-score.
For `GACGGTTTCGGGTTTCGGGAGGTGCTA`, “fitted relative affinity” read 8.85 z-score.

Series 2
Target: CCND2, cyclin fold, Cln2 fusion (human)
Technique: yeast growth competition, sequencing
Sample: yeast
Setting: weak parent motif
Baseline: not given
Reading: higher = stronger binding
Parent: RBL2 docking peptide (human); STTRRRLFVENDS
Under “normalised enrichment score”, `STTRRRLFVELDS [N11L]` is recorded as 0.14.
Under “normalised enrichment score”, `STTRRRCFVENDS [L7C]` is recorded as -0.0733.
`STTRRRLFPENDS [V9P]` — result for “normalised enrichment score”: -0.135.
`STTRRRLFVENDL [S13L]` — result for “normalised enrichment score”: 0.169.
Under “normalised enrichment score”, `STTRSRLFVENDS [R5S]` is recorded as -0.177.
`STTRRVLFVENDS [R6V]` — result for “normalised enrichment score”: 0.32.
`STARRRLFVENDS [T3A]` — result for “normalised enrichment score”: -0.0128.
`STIRRRLFVENDS [T3I]`: “normalised enrichment score” 0.011.
For `STTRRRLFQENDS [V9Q]`, “normalised enrichment score” read -0.257.
`STTRRRIFVENDS [L7I]`: “normalised enrichment score” 0.61.
`STTRRRLFVINDS [E10I]` — result for “normalised enrichment score”: -0.234.
For `STGRRRLFVENDS [T3G]`, “normalised enrichment score” read 0.176.
For `CTTRRRLFVENDS [S1C]`, “normalised enrichment score” read 0.632.

Series 3
Target: Fragile X messenger ribonucleoprotein 1, C-terminal low-complexity region (Fmr1, Mus musculus, UniProt P35922)
Technique: RNA Bind-n-Seq
Form: RNA
Sample: in vitro
Concentration: 200 nM
Setting: whole 134-nt RNA, ends assumed
Together with: 150 mM LiCl
Baseline: input library
Reading: higher = stronger binding
Library: 7-deaza-guanosine replaces G
All sequences stand within: GGGAGUUCUACAGUCCGACGAUC … UGGAAUUCUCGGGUGUCAAGG
`UAACUUUAGAGGAGGAUCUGAUGCAUAUGGCAGUGGACGUGGAUUUGGGGAUGGCUAUAAUGGGUAUGGAGGAGGACCUGGAGGUGGCAA` has a log2 enrichment of 0.777.
With `CUGUGCUACACAUCGUAUGUACCGAAUCGGGGUUUUUUUGGGGAAAAAGGGGAAAAAGGGGAAAGUAUUAUGUUACGCCGUUCGGAUCUG` the log2 enrichment was -1.04.
The log2 enrichment of `UCAAGUCCUGUGCUACACAUCGUAUGUACCGAAUCGGGUUUUUGGGAGGGUGGGAAAGUAUUAUGUUACGCCGUUCGGAUCUGCACUUCC` is reported as -1.4.
`CUCAAGUCCUGUGCUACACAUCGUAUGUACCGAAUCGGGUUGGGUUGGUUGGGAAAGUAUUAUGUUACGCCGUUCGGAUCUGCACUUCCA` has a log2 enrichment of 0.374.
`AGUCCUGUGCUACACAUCGUAUGUACCGAAUCGGGAAAGGGAAAAAAAGGGAAAGGGAAAGUAUUAUGUUACGCCGUUCGGAUCUGCACU` has a log2 enrichment of -0.921.
`UUGGAAGAGACCAGUGAAAUUCGAUCUGACUUGGAGCAGUUAGACCACGAGGUUAAGGAGGCUCAGACACUGUGCGAUGAACUCUCAGUG` gave a log2 enrichment of -0.36.
`UCCUGUGCUACACAUCGUAUGUACCGAAUCGGGGAAAAAGGGGAAAAAAAGGGGAGGGGAAAGUAUUAUGUUACGCCGUUCGGAUCUGCA` gave a log2 enrichment of 0.0793.
The log2 enrichment of `AGUCCUGUGCUACACAUCGUAUGUACCGAAUCAAAUUUUUAAAUUUUUAAACCCAAAAAAGUAUUAUGUUACGCCGUUCGGAUCUGCACU` is reported as -0.536.
The log2 enrichment of `GUCCUGUGCUACACAUCGUAUGUACCGAAUCGGUUUUUUGGUUUUUUGGGUUUUUUGGAAAGUAUUAUGUUACGCCGUUCGGAUCUGCAC` is reported as -1.41.
`CCUGUGCUACACAUCGUAUGUACCGAAUCAAAUUUUUAAAUUUUUUUAAAUUUUUUUAAAAAAGUAUUAUGUUACGCCGUUCGGAUCUGC` has a log2 enrichment of -2.49.
With `UAACUUUAGAGGAGGAUCUGAUGGAUAUGGCAGUGGACGUGGAUUUGGGGAUGGCUAUAAUGGGUAUAGAGGAGGACCUGGAGGUGGCAA` the log2 enrichment was 0.268.

Single results of other studies
`PhoQ, residues 284 288 289 292 302 303 GNNTDL` gave a fold induction of 1.48 (PhoP, residues 12 14 15 18 19 SMASL (Escherichia coli, UniProt P23836); Sort-seq, refers to: YFP reporter; E. coli; PhoQ-PhoP variant library, together with: 10 µM Mg2+; baseline: high Mg2+ state, higher = stronger signaling).

Some of these lines once more (series 3):
With `CUGUGCUACACAUCGUAUGUACCGAAUCGGGGUUUUUUUGGGGAAAAAGGGGAAAAAGGGGAAAGUAUUAUGUUACGCCGUUCGGAUCUG` the log2 enrichment was -1.04.
The log2 enrichment of `UCAAGUCCUGUGCUACACAUCGUAUGUACCGAAUCGGGUUUUUGGGAGGGUGGGAAAGUAUUAUGUUACGCCGUUCGGAUCUGCACUUCC` is reported as -1.4.
`CUCAAGUCCUGUGCUACACAUCGUAUGUACCGAAUCGGGUUGGGUUGGUUGGGAAAGUAUUAUGUUACGCCGUUCGGAUCUGCACUUCCA` has a log2 enrichment of 0.374.
`AGUCCUGUGCUACACAUCGUAUGUACCGAAUCGGGAAAGGGAAAAAAAGGGAAAGGGAAAGUAUUAUGUUACGCCGUUCGGAUCUGCACU` has a log2 enrichment of -0.921.
`UUGGAAGAGACCAGUGAAAUUCGAUCUGACUUGGAGCAGUUAGACCACGAGGUUAAGGAGGCUCAGACACUGUGCGAUGAACUCUCAGUG` gave a log2 enrichment of -0.36.
